Published values gathered from unrelated publications.
Lines come from different studies, so protocols differ. ± marks the error that the study gave.

| Compound | assay | test system | setting | endpoint | result |
| --- | --- | --- | --- | --- | --- |
| O=c1nc(NO)ccn1[C@@H]1O[C@H](CO)[C@@H](O)[C@H]1O |  | rat maternal blood dialysate | 25 ng/mL, low concentration, three cycles, with: molnupiravir 5 ng/mL | freeze-thaw stability | 101.4 ± 0.54% |
| CCc1ccc(CC/C=C/c2ccc3c(c2)C(=O)CC3)cc1 |  | Sprague-Dawley rat, male | oral, 120 mg/kg/day, 14 days | Basophil percentage | 0.33% |
| Clc1ccc(-c2ccccc2)cc1 |  | rat Sprague-Dawley female, serum | inhalation, 23 µg/rat, 4 h | serum CO2 | 24 ± 2 mmol/L |
| COc1cc2c(Oc3ccc4[nH]c(C)cc4c3F)ccnc2cc1OCC1(N)CC1 |  | paediatric refractory sarcoma patients | 8 mg | Fever incidence | 0% |
| CCN(CC)CCCC(C)Nc1c2ccc(Cl)cc2nc2ccc(OC)cc12 (stereo not shown) |  | African green monkey cells | 3 (unit not given) | CC50 | 2.11 µM |
| C[C@]1(O)C[C@@](N)(c2ccc(-c3nc4n(c3-c3ccccc3)COc3ccncc3-4)cc2)C1 |  | human, advanced or metastatic solid tumours | dose not given, once-daily dose escalation total | patients with grade ≥3 TEAE | 88.9% |
| O=C(O)CNCP(=O)(O)O | ultrafiltration | cow milk whey | 20 nM nominal in whole milk | dose fraction in permeate | 56.6% |
| CC(=O)c1c(C)c2cnc(Nc3ccc(C4CCN(CCS(C)(=O)=O)CC4)cn3)nc2n(C2CCCC2)c1=O |  | human patients, plasma | oral, 75 mg twice daily, day 1 single dose, with: fulvestrant | AUC(0-inf) | 938 ng·h/mL |
| C[C@]1(CO)Cc2ncn(-c3ccc(C#N)c(Cl)c3)c2C(=O)O1 |  | human | 80 mg multiple doses, fasted | subjects with drug-related somnolence | 11.1% |
| COc1c(OCCCN2CCOCC2)ccc2c1N=C(NC(=O)c1cnc(N)nc1)N1CCN=C21 |  | patients with advanced malignancies | intravenous, dose not given, all grades, all cohorts, with: gemcitabine | maculopapular rash incidence | 26% |
| CO[C@H]1C[C@@H]2CC[C@@H](C)[C@@](O)(O2)C(=O)C(=O)N2CCCC[C@H]2C(=O)O[C@H]([C@H](C)C[C@@H]2CC[C@@H](OC(=O)NCCOCCOCCOCCOCCOCCOCCOCCOCCC(=O)N3CCc4cc(Cn5nc(-c6ccc7oc(N)nc7c6)c6c(N)ncnc65)ccc4C3)[C@H](OC)C2)C[C@@H](O)[C@H](C)/C=C(\C)[C@@H](O)[C@@H](OC)C(=O)[C@H](C)C[C@H](C)/C=C/C=C/C=C/1C |  | patients with advanced solid tumours | intravenous, dose not given, any grade | incidence of nausea TRAE | 44% |
| C[C@@H](NC(=O)N1C(=O)[C@H](Cc2ccnc(N)c2)[C@H]1C(=O)O)C1CCCCC1 |  | healthy adult Chinese volunteers | continuous intravenous infusion, 0.6 mg/kg/h, 5-day infusion, CTCAE 5.0 grading | incidence of abnormal liver function | 12.5% |
| COc1ccc(-c2c(-c3ccc(C#N)c(F)c3)nc(N3CCC(N)CC3)n(C)c2=O)cc1F | refers to: esophageal ulcer | human patients | oral, dose not given, dose escalation | serious TEAE incidence | 2% |
